Assay results pooled from the literature.
Protocols differ between the studies behind these lines. ± marks the error that the study gave.

AEOL 10150  IL-1β level (multiplex immunoassay; rat, status epilepticus, piriform cortex; sc, 7 mg/kg every 4 h, 24 h, from 5 min post-SE): no effect
Nc1ccc([As]2SCCS2)cc1  IC50 (HCT-116; cell viability, MTS): 1860 ± 340 nM
gymnodimine A  Ki (nicotinic acetylcholine receptor (Torpedo marmorata); binding; with: biotin-α-bungarotoxin 80 nM): 19.2 ± 8.28 nM
NC12CC3CC(CC(C3)C1)C2  EC50 (Influenza A virus; viral replication, plaque size reduction; MDCK, A/Swine/Iowa/11-0909/2010 (H1N1)): < 1000 nM
C#CC(=O)Nc1ccc([As]2SCCS2)cc1  IC50 (NCM460; cell viability, MTS): 3200 ± 780 nM
Cc1cc(/C=C/C#N)cc(C)c1Oc1nc(NC2CCN(Cc3ccc(P(C)(C)=O)cc3)CC2)nc2ccsc12  selectivity index (HIV-1; MT-4, RES056 K103N/Y181C; baseline: CC50 over EC50): 7400
C[C@H](NP(=O)(Nc1ccn([C@H]2CS[C@@H](COP(=O)(N[C@@H](C)C(=O)OCc3ccccc3)N[C@@H](C)C(=O)OCc3ccccc3)O2)c(=O)n1)N[C@@H](C)C(=O)OCc1ccccc1)C(=O)OCc1ccccc1  IC50 (CEM/TK−; cell proliferation; 72 h): 155000 ± 38000 nM
20-methyl spirolide G  Hill slope (nicotinic acetylcholine receptor (Torpedo marmorata); binding; with: biotin-α-bungarotoxin): 0.93 ± 0.06
Pillar[6]MaxQ  Kd (host-guest binding, isothermal titration calorimetry; 20 mM sodium phosphate buffer; pH 7.4, with: mephedrone): 52.4 nM
C[C@H](NP(=O)(Nc1ccn([C@H]2CS[C@@H](CO)O2)c(=O)n1)N[C@@H](C)C(=O)OCc1ccccc1)C(=O)OCc1ccccc1  IC50 (HeLa TK-deficient; cell proliferation; 3 d): 256000 ± 21000 nM

For quick reference, copied from above:
NC12CC3CC(CC(C3)C1)C2  EC50 (Influenza A virus; viral replication, plaque size reduction; MDCK, A/Swine/Iowa/11-0909/2010 (H1N1)): < 1000 nM
